Results from different studies.
Each numbered part is a random draw from the data of one study; scales do not carry over between parts. Changes are numbered by the printed parent chain.

Study 1
Target: Ras GTPase-activating protein-binding protein 1, C-terminal RGG region (G3BP1, Homo sapiens, UniProt Q13283)
UniProt Q13283, sequence (whole entry, looked up): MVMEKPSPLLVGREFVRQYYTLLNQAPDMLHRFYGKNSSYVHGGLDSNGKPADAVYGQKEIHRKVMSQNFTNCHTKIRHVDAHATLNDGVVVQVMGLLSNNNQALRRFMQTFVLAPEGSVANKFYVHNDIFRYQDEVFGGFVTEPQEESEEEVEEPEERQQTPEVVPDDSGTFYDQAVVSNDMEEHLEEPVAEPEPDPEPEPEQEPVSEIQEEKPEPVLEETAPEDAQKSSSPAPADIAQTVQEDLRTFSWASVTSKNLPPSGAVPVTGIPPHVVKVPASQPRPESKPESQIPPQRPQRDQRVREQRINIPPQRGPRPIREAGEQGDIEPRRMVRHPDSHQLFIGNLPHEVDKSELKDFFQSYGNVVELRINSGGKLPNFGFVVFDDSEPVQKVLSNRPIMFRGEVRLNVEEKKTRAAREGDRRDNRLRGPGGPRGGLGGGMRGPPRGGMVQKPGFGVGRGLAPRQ
Method: RNA Bind-n-Seq
Molecule type: RNA
Matrix: in vitro
Tested at: 1 µM
Setting: whole 134-nt RNA, ends assumed
Together with: 150 mM KCl
Relative to: input library
Direction: higher = stronger binding
All sequences stand within: GGGAGUUCUACAGUCCGACGAUC … UGGAAUUCUCGGGUGUCAAGG
Strand	log2 enrichment
CCUGUGCUACACAUCGUAUGUACCGAAUCGGUUUUUUGGGUUUUUUGGGGUUUUUUGGGGAAAGUAUUAUGUUACGCCGUUCGGAUCUGC	-1.54
UGUGAGACUGAAGAUUAUGGAGAAAAGUUUGAUGAAAAUGAUGUGAUUACAUGUUUUGCUGUAAGUUAAAGCUAACUUUCUAUGUAUAAA	-2.25
CUCAAGUCCUGUGCUACACAUCGUAUGUACCGAAUCGGGGUGGGGUGGGGUGGGAAAGUAUUAUGUUACGCCGUUCGGAUCUGCACUUCC	2.09
GUCCUGUGCUACACAUCGUAUGUACCGAAUCAAAUUUAAAUUUUUAAACCCCCCCAAAAAAGUAUUAUGUUACGCCGUUCGGAUCUGCAC	-0.475
GCAGGAAGUAAAAACAAAUGGAAAUGCUUCGGAUAGUGGCAGGGGUGGGGGUUGCUAAGGAAAGGGUGGGAUGGGAGUGGUUAAAGAGUU	1.71
AGUCCUGUGCUACACAUCGUAUGUACCGAAUCGGGUUUGGGUUUUUGGGAAAAAGGGAAAGUAUUAUGUUACGCCGUUCGGAUCUGCACU	0.666
AGUCCUGUGCUACACAUCGUAUGUACCGAAUCGGGGAGGGGUUUUUGGGGUUUGGGGAAAGUAUUAUGUUACGCCGUUCGGAUCUGCACU	0.746
UAACUUUAGAGGAGGAUCUAAUGGAUAUGGCAGUGGACGUGGAUUUGGGGAUGGCUAUAAUGGGUAUGGAGGAGGACCUGGAGGUGGCAA	-1.1
UCAAGUCCUGUGCUACACAUCGUAUGUACCGAAUCGGGAAGGGGAAGGGAAGGGGAAAGUAUUAUGUUACGCCGUUCGGAUCUGCACUUC	2.73

Study 2
Target: Sal-like protein 4, full length isoform A (SALL4, Homo sapiens, UniProt Q9UJQ4, residues 1-1053)
UniProt Q9UJQ4, sequence (whole entry, looked up): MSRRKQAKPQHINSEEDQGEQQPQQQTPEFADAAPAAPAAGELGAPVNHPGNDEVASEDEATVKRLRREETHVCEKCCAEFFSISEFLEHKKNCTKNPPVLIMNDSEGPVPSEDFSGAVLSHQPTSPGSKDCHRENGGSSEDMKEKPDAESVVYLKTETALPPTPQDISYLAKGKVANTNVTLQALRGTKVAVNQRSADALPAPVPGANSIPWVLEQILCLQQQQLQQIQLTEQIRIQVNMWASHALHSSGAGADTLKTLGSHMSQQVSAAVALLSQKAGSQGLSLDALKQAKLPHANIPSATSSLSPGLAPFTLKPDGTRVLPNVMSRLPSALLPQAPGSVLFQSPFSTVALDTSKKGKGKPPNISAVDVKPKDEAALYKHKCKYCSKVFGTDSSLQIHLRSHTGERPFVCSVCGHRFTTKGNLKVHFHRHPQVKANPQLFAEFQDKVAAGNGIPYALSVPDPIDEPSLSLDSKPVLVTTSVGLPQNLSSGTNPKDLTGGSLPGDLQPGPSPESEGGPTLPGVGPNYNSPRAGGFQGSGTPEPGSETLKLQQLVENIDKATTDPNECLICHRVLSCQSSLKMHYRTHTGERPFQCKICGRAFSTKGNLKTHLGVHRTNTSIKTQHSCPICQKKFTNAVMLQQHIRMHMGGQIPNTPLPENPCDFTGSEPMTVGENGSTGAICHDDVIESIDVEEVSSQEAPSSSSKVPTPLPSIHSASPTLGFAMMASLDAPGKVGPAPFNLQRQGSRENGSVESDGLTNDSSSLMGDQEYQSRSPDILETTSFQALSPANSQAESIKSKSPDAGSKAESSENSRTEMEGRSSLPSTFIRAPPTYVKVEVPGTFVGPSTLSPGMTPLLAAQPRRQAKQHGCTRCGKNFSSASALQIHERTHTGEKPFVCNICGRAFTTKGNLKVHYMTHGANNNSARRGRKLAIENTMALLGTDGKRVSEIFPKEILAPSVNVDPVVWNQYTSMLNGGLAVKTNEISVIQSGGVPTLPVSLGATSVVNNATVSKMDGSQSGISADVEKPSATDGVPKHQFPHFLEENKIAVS
Method: universal PBM
Molecule type: double-stranded DNA, one strand shown
Matrix: in vitro
Tested at: 600 nM
Setting: 8-mer, flanks averaged, mean of replicates
Direction: higher = stronger binding
Strand	E-score
AAACACGT	0.0806
CCTCACCC	-0.145
AGGTTCTG	-0.0866
CACCAGCG	-0.226
GTGTACAA	0.169
GCAGAAAC	0.0185
GGACTATA	0.177
CATCTTTC	0.131
CGGAACAC	-0.0772

Study 3
Target: ABI1, truncated, D143A, DHFR fusion (Arabidopsis thaliana, UniProt P49597)
Method: DHFR PCA, dose-response
Matrix: yeast
Setting: Hill fit, not affinity, not high confidence
Together with: (+)-ABA, dose series
Direction: lower = more sensitive
Starting sequence: PYL1, truncated, DHFR fusion (Arabidopsis thaliana, UniProt Q8VZS8); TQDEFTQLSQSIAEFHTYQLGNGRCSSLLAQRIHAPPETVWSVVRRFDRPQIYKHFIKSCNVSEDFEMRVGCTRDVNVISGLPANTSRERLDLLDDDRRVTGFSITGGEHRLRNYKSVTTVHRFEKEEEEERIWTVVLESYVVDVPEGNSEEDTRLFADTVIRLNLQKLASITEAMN
Change	ABA EC50 [µM]
H16Q	20.7
S117L	1090
P50L	13.5
S80C	197
N149G	93.1
A84D	707
P50Q	480
G102L	2070
W41M	5.79
C60Y	505
V76P	808

Study 4
Target: UBE2D1 UBC core domain (UniProt P51668)
Method: yeast two-hybrid
Matrix: yeast
Setting: mostly zero background
Relative to: not given
Direction: higher = stronger interaction
B1: RNF19A RING domain (UniProt Q9NV58); chain ISKQIGDFIECPLCLLRHSKDRFPDIMTCHHRSCVDCLRQYLRIEISESRVNISCPECTERFNPHDIR
B2: RBCK1 RING domain (UniProt Q9BYM8); chain SLVLNTEPAECPVCYSVLAPGEAVVLRECLHTFCRECLQGTIRNSQEAEVSCPFIDNTYSCSGKLLEREIK
Construct (chain): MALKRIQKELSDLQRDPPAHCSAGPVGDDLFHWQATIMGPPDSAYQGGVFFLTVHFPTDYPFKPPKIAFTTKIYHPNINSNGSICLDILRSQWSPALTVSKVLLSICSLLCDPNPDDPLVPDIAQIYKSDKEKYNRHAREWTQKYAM
Sequence	lacZ reporter activity
B1 (RNF19A RING domain)	0
AVPSGLEENLCKICMDSPIDCVLLECGHMVTCTKCGKRMNECPICRQYVIRAVHVF (RFFL RING domain (UniProt Q8WZ73))	0
B2 (RBCK1 RING domain)	0
GSDDEEIPFKCFICRQSFQNPVVTKCRHYFCESCALQHFRTTPRCYVCDQQTNGVFNPA (RNF113A RING domain (UniProt O15541))	0
GSRLQEINDVCAICYHEFTTSARITPCNHYFHALCLRKWLYIQDTCPMCHQKVYIEDDIK (RNF139 RING domain (UniProt Q8WU17))	0

Study 5
Target: RNA binding protein fox-1 homolog 2, RRM domain, GST-SBP tag (RBFOX2, Homo sapiens, UniProt O43251-10, residues 100-194)
Method: RNA Bind-n-Seq
Molecule type: RNA
Matrix: in vitro
Tested at: 365 nM
Setting: natural RNA segment, single round, ends assumed
Relative to: no-protein control
Direction: higher = stronger binding
All sequences stand within: GGGAGUUCUACAGUCCGACGAUC … UGGAAUUCUCGGGUGCCAA
Residues (chain): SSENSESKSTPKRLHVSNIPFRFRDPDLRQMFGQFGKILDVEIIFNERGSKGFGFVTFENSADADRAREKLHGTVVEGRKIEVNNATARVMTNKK
Strand	RBNS enrichment (R)
UGUAUUUGUCCUUCAUAUUCAGGAUGUGAUAUUUACAAAAUGCAGAACAGUUUAAACUUGUUAAGUCACAUUCCAGAUUAGGAGAAAAUGGGCAAUAAUCAUCUCUGUUU	0.429
CAUCUAAUAUCUCAUGCAUGCAGUUUUGUUGUAUCAAUUAAAAGGGUUUUGUAUAUUUAUGGUGGGAGGCUACUGGGAACUUUUAACAAAAUAGGGAAUUAACUUUUGUA	15.2
GCAUCUCAGCAUCUGGGUGGAAGCUGCCUAUAUUUCUUCCCAGUUUAACUGGGGACCAUCUGUGAAAUUAAUUUUCCAUCCAGACAGCUGCUGUGAGCAAAUGAACAUAA	0.407
GGGUUCUCUGGUCCAAGACCCUGCUUUAAAGAGAGUCUUUGGCGUGCUCAGACUCCAGCGCUCCGUUCUUCAAGGAGGUUGACUUGCCUCUCGGGCCCCGUAGGUACCAA	0.291
GGUGCUGGUGGACCUGCGGCCCAAGGGCCUGGAUGGAGCUCGGGCUGAGCGGGUGCUAGAGCUUGUAUCCAUCACUGCCAACAAGAACACCUGUCCUGGAGACCGAAGUG	0.636
CUCUUUAUGCUGCAAAGACCUGGAUGAUGUUUGGUAACUAUAGAAAAAUAGAAAUUACACUCAGGAUCACUGUUACUGCUAUUGCCACUGAUGAUUCCUGCAAAAAUAUA	0.608
CAAUAGGUAUUAUUUUAUCCCCCAUUUUAUAAAUGAGGAAACGGAGGCUUAGUUGAGUGAGCUGACCAAUAUCACCCAGCCAGUAUGUGAUAAAACUGAUUCUGACCCAC	0.402

Study 6
Target: Histone acetyltransferase KAT6A, both winged helices, GST fusion (KAT6A, Homo sapiens, UniProt Q92794, residues 1-181)
Method: protein binding microarray
Molecule type: double-stranded DNA, one strand shown
Matrix: in vitro
Tested at: not given
Setting: 8-mer, flanks averaged, mean of 2 arrays, mostly near background
Relative to: not given
Direction: higher = stronger binding
Construct (chain): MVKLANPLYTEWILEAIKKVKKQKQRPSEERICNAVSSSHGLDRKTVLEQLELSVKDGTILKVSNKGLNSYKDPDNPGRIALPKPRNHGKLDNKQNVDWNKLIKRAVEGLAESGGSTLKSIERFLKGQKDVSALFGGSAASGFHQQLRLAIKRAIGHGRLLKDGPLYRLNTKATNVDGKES
Strand	E-score
ATCAAGGG	-0.151
AACCTACA	-0.103
CTAGGACA	-0.104
ACTTCCTA	-0.151
ATTGAGAG	-0.0872
ATCAACGA	-0.0535
AAAGTGTA	-0.0787
AATATTTG	-0.0551
CTTGGGAC	-0.128
CCAATGGA	-0.0934
AGGTAAGA	-0.111
AACGCTAA	0.086
AGGCGTAC	0.0488
CCGGCTGA	0.13
ACTGTTAC	-0.0317
CGGCTCGA	0.169

Study 7
Target: RING finger protein unkempt homolog, zinc fingers 1-6, GST-SBP tag (UNK, Homo sapiens, UniProt Q9C0B0, residues 30-357)
UniProt Q9C0B0, sequence (30-357, looked up): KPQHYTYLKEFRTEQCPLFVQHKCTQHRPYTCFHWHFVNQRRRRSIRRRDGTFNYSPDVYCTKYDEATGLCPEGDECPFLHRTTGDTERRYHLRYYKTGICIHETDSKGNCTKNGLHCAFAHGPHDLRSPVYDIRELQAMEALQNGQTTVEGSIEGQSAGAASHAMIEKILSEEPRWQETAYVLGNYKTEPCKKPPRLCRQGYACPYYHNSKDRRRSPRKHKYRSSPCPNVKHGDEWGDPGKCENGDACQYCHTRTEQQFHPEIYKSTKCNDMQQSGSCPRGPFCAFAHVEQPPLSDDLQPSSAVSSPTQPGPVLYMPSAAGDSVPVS
Method: RNA Bind-n-Seq
Molecule type: RNA
Matrix: in vitro
Tested at: not given
Setting: RNA with constant flanks, human and mouse sites, ends assumed
Relative to: input RNA pool
Direction: higher = stronger binding
Strand	bound/input enrichment [ratio]
GGGAGUUCUACAGUCCGACGAUCGUCAGCCAGUCACUACAGCAUUACCUGGAGCUGGGACGGCAAGAACUUUUCAAGAUUCUACAUAGUAUUUUGUUAAAUGGCGAAACUCGUGAAGCGGCUCUCAGCUACAUGGCGGCCCUUCAACAGAGGAUUGAGCAUCA	1.68
GGGAGUUCUACAGUCCGACGAUCCUCAGUGCUGGCUCCAGUGAGAGCUGUGGAGGUCUCUUGCCUUCUCCAGGUUGGGUUUCUCUGUUUUUGUGGUCGGAUAGUCAUGGCUCUUGUCCCUGAAGCUCUGUAUUGUGCCUCCUGCAACAGAGGAUUGAGCAUCA	0.3
GGGAGUUCUACAGUCCGACGAUCCGAGCGAGAAGGCACGGAGUCGCCGCGGAGCGCAGGUUGCUUUCCUGUUGCAUCUUUGAUAUCAUUUCCUAGACUCUACUCCAUGAUUUAACUUGAAAUUCUGAAAUGAAGAUGGAGGAGCAACAGAGGAUUGAGCAUCA	0.19
GGGAGUUCUACAGUCCGACGAUCCCAGAAGUCGAGUCCCUGCAGGACUACAAGAACACCUUUCCCAAGUGGAAGCCGGGGAGCCUCGCAUCCCACGUCAAGAACCUGGACGAGAACGGCUUGGAUUUGCUCUCAAAAAUGCUACAACAGAGGAUUGAGCAUCA	0.183

Excerpt of the above (study 4):
Sequence	lacZ reporter activity
AVPSGLEENLCKICMDSPIDCVLLECGHMVTCTKCGKRMNECPICRQYVIRAVHVF (RFFL RING domain (UniProt Q8WZ73))	0
GSDDEEIPFKCFICRQSFQNPVVTKCRHYFCESCALQHFRTTPRCYVCDQQTNGVFNPA (RNF113A RING domain (UniProt O15541))	0
B1 (RNF19A RING domain)	0
B2 (RBCK1 RING domain)	0
GSRLQEINDVCAICYHEFTTSARITPCNHYFHALCLRKWLYIQDTCPMCHQKVYIEDDIK (RNF139 RING domain (UniProt Q8WU17))	0
